Measured values gathered from unrelated publications.
Lines come from different studies, so protocols differ. Several values in a cell are separate wells, animals, samples, runs or records. Numbers after ± are the reported error.
CASP1: Caspase-1 (CASP1, Homo sapiens, UniProt P29466)
UniProt P29466, sequence (whole entry, looked up): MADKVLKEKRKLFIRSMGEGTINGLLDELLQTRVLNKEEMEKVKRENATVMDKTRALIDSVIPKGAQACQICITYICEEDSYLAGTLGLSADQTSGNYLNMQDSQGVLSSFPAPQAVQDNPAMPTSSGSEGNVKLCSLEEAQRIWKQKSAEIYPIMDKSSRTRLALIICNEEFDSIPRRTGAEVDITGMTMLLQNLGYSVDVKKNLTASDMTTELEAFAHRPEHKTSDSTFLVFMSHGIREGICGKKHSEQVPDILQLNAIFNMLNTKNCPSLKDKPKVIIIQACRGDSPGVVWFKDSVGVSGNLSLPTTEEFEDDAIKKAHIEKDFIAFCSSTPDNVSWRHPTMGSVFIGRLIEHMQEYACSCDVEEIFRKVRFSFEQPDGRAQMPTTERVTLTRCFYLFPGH
PPARG ligand-binding domain: Peroxisome proliferator-activated receptor gamma, ligand-binding domain (PPARG, Homo sapiens, UniProt P37231)
UniProt P37231, sequence (whole entry, looked up): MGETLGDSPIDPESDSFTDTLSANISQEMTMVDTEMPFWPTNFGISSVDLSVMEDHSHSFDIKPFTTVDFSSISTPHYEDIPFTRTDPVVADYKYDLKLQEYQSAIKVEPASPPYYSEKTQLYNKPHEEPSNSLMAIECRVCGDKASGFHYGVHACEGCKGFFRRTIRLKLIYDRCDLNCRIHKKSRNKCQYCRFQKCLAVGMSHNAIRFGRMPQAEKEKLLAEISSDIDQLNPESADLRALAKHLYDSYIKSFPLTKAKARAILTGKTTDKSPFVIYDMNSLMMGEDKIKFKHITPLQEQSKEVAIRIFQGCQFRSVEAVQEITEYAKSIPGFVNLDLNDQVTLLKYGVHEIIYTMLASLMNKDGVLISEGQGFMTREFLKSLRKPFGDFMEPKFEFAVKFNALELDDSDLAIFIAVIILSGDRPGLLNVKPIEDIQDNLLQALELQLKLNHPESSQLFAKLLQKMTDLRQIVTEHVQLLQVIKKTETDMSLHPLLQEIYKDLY
Rhomboid protease AarA: Rhomboid protease AarA (Providencia stuartii, UniProt P46116)
UniProt P46116, sequence (whole entry, looked up): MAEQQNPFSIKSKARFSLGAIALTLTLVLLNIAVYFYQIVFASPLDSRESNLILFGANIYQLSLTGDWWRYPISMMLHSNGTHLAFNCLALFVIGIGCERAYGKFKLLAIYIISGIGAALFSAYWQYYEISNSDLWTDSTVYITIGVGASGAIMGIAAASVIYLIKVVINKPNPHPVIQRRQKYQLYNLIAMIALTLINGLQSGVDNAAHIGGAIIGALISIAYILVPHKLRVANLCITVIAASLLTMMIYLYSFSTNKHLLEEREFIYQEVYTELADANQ
T1: ssRNA, hairpin with 1x1 G/G internal loops (Homo sapiens); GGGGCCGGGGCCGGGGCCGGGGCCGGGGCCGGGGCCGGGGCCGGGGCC
UniProt Q96FW1, sequence (whole entry, looked up): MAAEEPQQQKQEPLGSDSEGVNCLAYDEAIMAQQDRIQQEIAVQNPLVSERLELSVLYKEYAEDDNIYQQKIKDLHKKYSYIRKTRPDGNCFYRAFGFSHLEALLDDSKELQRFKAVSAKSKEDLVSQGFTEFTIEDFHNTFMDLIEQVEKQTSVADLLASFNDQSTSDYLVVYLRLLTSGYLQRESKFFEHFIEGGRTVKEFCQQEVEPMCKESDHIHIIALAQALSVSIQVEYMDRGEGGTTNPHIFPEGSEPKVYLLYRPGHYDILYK
UniProt Q92633, sequence (whole entry, looked up): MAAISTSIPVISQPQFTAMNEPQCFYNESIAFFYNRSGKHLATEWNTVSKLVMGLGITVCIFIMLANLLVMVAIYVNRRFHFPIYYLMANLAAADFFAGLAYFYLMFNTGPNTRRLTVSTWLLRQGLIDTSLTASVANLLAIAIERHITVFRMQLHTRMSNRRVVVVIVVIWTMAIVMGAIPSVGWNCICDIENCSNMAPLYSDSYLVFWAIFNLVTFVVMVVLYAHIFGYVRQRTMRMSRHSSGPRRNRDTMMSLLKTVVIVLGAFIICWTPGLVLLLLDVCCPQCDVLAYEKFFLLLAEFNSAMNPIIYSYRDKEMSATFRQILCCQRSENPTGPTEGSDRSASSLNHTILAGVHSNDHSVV
UniProt P46089, sequence (whole entry, looked up): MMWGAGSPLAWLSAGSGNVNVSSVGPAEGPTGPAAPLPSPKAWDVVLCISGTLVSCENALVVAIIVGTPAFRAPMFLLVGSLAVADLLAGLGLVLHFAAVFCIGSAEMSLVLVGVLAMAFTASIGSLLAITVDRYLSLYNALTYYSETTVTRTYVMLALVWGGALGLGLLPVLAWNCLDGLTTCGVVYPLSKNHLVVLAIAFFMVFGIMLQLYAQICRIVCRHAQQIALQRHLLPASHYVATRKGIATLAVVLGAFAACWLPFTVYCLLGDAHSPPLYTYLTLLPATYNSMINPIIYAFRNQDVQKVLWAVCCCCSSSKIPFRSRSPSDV
UniProt P17706, sequence (whole entry, looked up): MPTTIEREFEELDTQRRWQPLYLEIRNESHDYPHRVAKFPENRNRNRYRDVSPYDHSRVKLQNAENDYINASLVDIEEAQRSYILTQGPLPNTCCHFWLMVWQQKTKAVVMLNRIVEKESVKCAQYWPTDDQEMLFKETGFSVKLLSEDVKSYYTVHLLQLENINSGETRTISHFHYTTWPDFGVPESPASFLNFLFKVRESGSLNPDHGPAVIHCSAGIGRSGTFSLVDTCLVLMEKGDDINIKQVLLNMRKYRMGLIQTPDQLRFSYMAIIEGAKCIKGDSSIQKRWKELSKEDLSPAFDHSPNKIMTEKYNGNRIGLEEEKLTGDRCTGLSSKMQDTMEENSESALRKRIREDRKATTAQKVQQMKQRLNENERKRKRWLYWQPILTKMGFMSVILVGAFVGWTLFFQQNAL
UniProt P00558, sequence (whole entry, looked up): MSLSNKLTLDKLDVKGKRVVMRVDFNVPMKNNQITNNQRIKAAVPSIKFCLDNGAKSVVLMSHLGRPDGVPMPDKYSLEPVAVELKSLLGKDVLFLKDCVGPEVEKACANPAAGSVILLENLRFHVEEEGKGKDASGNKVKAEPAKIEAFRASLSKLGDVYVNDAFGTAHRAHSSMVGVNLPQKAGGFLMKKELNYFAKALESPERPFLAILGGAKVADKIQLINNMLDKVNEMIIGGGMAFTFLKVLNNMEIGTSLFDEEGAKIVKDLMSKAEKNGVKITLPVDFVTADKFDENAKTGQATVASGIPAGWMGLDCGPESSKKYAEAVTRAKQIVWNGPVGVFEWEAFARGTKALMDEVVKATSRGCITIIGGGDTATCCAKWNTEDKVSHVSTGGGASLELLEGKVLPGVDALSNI
UniProt Q03431, sequence (whole entry, looked up): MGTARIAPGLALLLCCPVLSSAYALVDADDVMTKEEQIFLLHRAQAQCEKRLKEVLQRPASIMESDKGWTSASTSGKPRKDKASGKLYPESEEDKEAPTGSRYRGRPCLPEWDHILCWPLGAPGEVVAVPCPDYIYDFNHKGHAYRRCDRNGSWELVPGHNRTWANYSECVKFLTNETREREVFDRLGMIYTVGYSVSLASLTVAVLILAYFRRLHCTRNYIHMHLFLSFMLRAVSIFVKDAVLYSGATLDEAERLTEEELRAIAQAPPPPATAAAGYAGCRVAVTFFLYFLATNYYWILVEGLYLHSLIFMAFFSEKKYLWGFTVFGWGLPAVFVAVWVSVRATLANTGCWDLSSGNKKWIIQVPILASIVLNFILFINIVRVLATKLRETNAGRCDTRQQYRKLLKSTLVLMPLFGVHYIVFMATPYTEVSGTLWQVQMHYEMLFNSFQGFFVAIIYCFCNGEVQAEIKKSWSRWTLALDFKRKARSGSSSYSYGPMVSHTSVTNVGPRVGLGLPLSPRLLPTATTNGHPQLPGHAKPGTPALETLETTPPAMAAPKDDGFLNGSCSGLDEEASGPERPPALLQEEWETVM
UniProt Q62666, sequence (whole entry, looked up): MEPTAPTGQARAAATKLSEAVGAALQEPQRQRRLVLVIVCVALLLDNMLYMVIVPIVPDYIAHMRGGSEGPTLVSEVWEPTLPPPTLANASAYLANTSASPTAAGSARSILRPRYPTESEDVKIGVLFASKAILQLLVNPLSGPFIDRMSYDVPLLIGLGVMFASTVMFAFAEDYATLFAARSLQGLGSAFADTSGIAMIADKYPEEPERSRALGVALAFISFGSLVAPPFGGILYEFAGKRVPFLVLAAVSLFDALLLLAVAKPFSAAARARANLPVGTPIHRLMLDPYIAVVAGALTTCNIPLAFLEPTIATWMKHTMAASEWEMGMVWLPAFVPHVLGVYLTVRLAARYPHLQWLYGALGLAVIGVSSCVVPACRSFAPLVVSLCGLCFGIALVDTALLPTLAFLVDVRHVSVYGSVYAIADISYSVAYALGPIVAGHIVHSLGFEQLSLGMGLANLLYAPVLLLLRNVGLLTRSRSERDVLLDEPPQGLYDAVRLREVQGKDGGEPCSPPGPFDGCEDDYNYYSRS
UniProt P45983, sequence (whole entry, looked up): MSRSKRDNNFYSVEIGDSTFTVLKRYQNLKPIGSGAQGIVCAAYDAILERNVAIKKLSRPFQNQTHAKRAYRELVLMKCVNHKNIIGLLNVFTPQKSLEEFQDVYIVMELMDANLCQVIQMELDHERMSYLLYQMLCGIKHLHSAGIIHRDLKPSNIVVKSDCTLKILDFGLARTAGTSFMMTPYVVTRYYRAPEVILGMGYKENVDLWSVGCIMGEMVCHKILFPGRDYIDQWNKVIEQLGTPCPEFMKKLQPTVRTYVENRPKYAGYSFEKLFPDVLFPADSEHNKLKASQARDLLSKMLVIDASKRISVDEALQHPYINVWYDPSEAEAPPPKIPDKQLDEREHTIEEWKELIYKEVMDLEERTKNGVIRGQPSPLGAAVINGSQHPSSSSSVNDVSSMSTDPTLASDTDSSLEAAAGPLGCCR
UniProt P07711, sequence (whole entry, looked up): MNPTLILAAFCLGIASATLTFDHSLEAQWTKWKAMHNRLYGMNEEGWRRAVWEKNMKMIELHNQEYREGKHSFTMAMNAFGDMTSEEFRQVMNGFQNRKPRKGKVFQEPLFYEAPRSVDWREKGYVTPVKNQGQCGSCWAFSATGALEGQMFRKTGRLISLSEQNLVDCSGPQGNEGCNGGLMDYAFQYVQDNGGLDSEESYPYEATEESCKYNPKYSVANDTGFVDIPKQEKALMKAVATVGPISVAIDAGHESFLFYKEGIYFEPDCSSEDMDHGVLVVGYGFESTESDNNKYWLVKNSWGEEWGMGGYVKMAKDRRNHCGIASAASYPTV

Compound | target or system | test | system | setting | scale | measurement | value
CN(Cc1cc(C2CC2)on1)C(=O)c1cccc(-c2ccc3c(c2)CCO3)c1 | Acetyl-CoA synthetase (Cryptococcus neoformans, UniProt J9VFT1) | enzyme activity, inhibitor, coupled pyrophosphate |  | 1.56 µM | higher is more activity | reaction rate | 0.0023 a.u.
CC(=O)N[C@@H](CC(=O)O)C(=O)N[C@@H](CCC(=O)O)C(=O)N[C@@H](CC(C)C)C(=O)N[C@@H](CC(=O)O)C(=O)COC(=O)c1c(C)cccc1C | CASP1 | enzyme activity, inhibitor |  |  |  | kinact/KI | 36000 M⁻¹ s⁻¹
CCCCCC(O)/C=C/C=O (stereo not shown) | Phosphoglycerate kinase 1 (PGK1, Homo sapiens, UniProt P00558) | acylphosphate-ATP probe SILAC-ABPP | ZAK-transfected HEK293T | 100 µM, together with: acylphosphate-ATP probe | reference: DMSO over compound-treated | probe labelling ratio | 0.64
CC(C)(C)OC(=O)NC(Cc1cccc(Cl)c1)C(=O)NCC=CS(=O)(=O)c1ccccc1 (stereo not shown) | Procathepsin L (CTSL, Homo sapiens, UniProt P07711) | inhibitor |  | together with: Z-Phe-Arg-pNA |  | kinact/Ki | 16400 M⁻¹ s⁻¹
Cc1c(Cc2ccc(OC(C)C(=O)O)cc2)c2ccc(C(=O)NC(C)c3cccc(C4CC4)c3)cc2n1C (mixture of isomers) | PPARG ligand-binding domain | reporter gene, luciferase reporter | HEK293T, Gal4-PPARγ LBD |  |  | IC50 | 6.94 µM
O=C1Cc2cc(Br)ccc2N1 | Dehaloperoxidase B, ferric (Amphitrite ornata, UniProt Q9NAV7) | product, HPLC |  | together with: 5-bromoindole 500 µM, H2O2 250 µM |  | share of total products | 47.1%
CCCCCCCCCCCCCCCC(=O)NCCCC[C@H](NC(=O)[C@H](CCC(=O)O)NC(=O)[C@H](Cc1ccc(O)cc1)NC(=O)[C@H](CCC(=O)O)NC(=O)COCC(=O)NCCCOCCOCCOCCCNC(=O)[C@H](Cc1c[nH]c2ccccc12)NC(=O)[C@H](CCCCN)NC(=O)[C@H](C)NC(=O)[C@H](CCCCNC(=N)N)NC(=O)[C@H](CCC(N)=O)NC(=O)[C@H](Cc1c[nH]cn1)NC(=O)[C@H](CCSC)NC(=O)[C@H](CC(C)C)NC(=O)[C@H](CCC(N)=O)NC(=O)[C@@H](NC(=O)[C@H](CCC(=O)O)NC(=O)C(C)(C)NC(=O)[C@@H](NC(=O)C(C)(C)N)C(C)C)[C@@H](C)CC)C(=O)N[C@@H](CCC(=O)O)C(=O)N[C@@H](Cc1ccc(O)cc1)C(=O)N[C@@H](CCC(=O)O)C(N)=O | Parathyroid hormone/parathyroid hormone-related peptide receptor (PTH1R, Homo sapiens, UniProt Q03431) | agonist | Saos-2 with cAMP reporter | 1 pM, 90 min, washout after 30 min ligand | higher = more cAMP | cAMP luminescence AUC | 111 a.u.
Cc1ccc(C2CCN(C3CCCCC3O)CC2)cc1 (racemic) | Vesicular acetylcholine transporter (Rattus norvegicus, UniProt Q62666) |  | rat liver (sigma2) |  | reference: Ki sigma2 over Ki VAChT | selectivity ratio | 0.12
CC(C)Oc1cc(Cl)ccc1CNc1cc(-c2ccccc2)nc2ncnn12 | G-protein coupled receptor 3 (GPR3, Homo sapiens, UniProt P46089) | cAMP reporter | human cells | 30 µM | higher is more cAMP | cAMP luminescence | 2980 a.u. and 1460 a.u. and 1600 a.u. and 7260 a.u. and 12400 a.u. and 1670 a.u. and 4100 a.u.
CCCC[C@H](NC(=O)[C@H](CC(=O)O)NC(C)=O)C(=O)N1[C@H](C(=O)N[C@@H](CC(=O)O)C(=O)COC(=O)c2c(C)cccc2C)C[C@@H]2CCCC[C@@H]21 | CASP1 | enzyme activity, inhibitor |  |  |  | kinact/KI | 30100 M⁻¹ s⁻¹
C=CC(=O)N1C[C@H](C)N(c2nc(OC[C@@]34CCCN3C[C@H](F)C4)nc3c(F)c(-c4ccc(F)c5sc(N)c(C#N)c45)c(C(F)(F)F)cc23)C[C@H]1C | GTPase KRas, GDP-bound (KRAS, Homo sapiens, UniProt P01116, G13D) | SPR |  |  |  | dissociation rate constant koff | 0.000676 ± 0.00019 s⁻¹
COC1CN([C@H]2CC[C@H]([C@@]3(C)Oc4c(Cl)cc(C(=O)NCc5c(SC)cc(C)[nH]c5=O)c(C)c4O3)CC2)C1 |  | RNA-seq, item: TLCD2 | human, whole blood | dose not given, 24 h | reference: pretreatment baseline | log2 fold change | 1.12
CCN(CC)C(CO)c1cccc2c(C)c(C)oc12 (stereo not shown) | Lysophosphatidic acid receptor 1 (LPAR1, Homo sapiens, UniProt Q92633) | G-protein dissociation, agonist, NanoBiT | HEK-293T | 1 µM, wild-type receptor | reference: baseline luminescence | fold change | 0.481 and 0.507 and 0.584 and 0.549 and 0.632 and 0.496
O=C1c2sc(-c3ccc(N4CCC(CO)CC4)nc3F)nc2CCN1c1cccnc1 | Peroxisome proliferator-activated receptor gamma (PPARG, Homo sapiens, UniProt P37231) | ligand displacement, radioligand |  | 1 µM |  | inhibition | -12%
N#CN1CC[C@H](C(=O)Nc2nc3c(s2)CN(C(=O)Cn2cc(CNC(=O)CCCC[C@@H]4SC[C@@H]5NC(=O)N[C@@H]54)nn2)CC3)C1 | Ubiquitin thioesterase OTUB1 (OTUB1, Homo sapiens, UniProt Q96FW1) | probe binding, affinity probe, neutravidin pull-down LC-MS/MS | HEK293T, cell lysate | 5 µM, 1 h, single replicate, unit not given | higher = more pulled down | iBAQ abundance | 1.91e+06 and 263000 and 576000
Cn1c(=O)n(C2CCC(=O)NC2=O)c2ccc(C3CCN(CC(=O)Nc4cccc(CS(=O)(=O)N5CC[C@H](Nc6cccc(-c7sc(C(=O)O)c(OCC(=O)O)c7Cl)c6)CC5(C)C)c4)CC3)cc21 (stereo partly shown) | Tyrosine-protein phosphatase non-receptor type 2 (PTPN2, Homo sapiens, UniProt P17706) | degrader, bio-layer interferometry |  | 500 nM, biotinylated protein immobilised | higher = more binding | BLI binding response | 0.413 a.u. and 0.223 a.u.
Cn1cc(-c2cc(N3CCCCS3(=O)=O)ccc2N[C@H]2CC[C@H](C)CC2)c2cc[nH]c2c1=O (stereo in doubt) | Peregrin (BRPF1, Homo sapiens, UniProt P55201) | binding, competition with immobilised ligand |  | 1 µM |  | remaining binding | 100%
Cc1c(Cc2cccc(OC(C)C(=O)O)c2)c2ccc(C(=O)NC(C)c3ccc(C(C)C)cc3)cc2n1C (mixture of isomers) | PPARG ligand-binding domain | reporter gene, luciferase reporter | HEK293T, Gal4-PPARγ LBD |  |  | IC50 | 0.79 µM
[N-]=[N+]=N[C@]1(COP(=O)(O)OP(=O)(O)OP(=O)(O)O)O[C@@H](n2ccc(N)nc2=O)[C@@H](F)[C@@H]1O | Gag-Pol polyprotein, reverse transcriptase (gag-pol, Human immunodeficiency virus type 1 group M subtype B, UniProt P04585) | nucleotide incorporation, substrate | HIV-1 | together with: DNA template |  | Km | 0.079 µM
CC(=O)N[C@@H](CO)C(=O)N[C@H](C(=O)N1CCC[C@H]1C(=O)N[C@@H](CC(=O)O)C(=O)COC(=O)c1c(C)cccc1C)C(C)(C)C | CASP1 | inhibitor |  | recombinant enzyme |  | kobs/[I] | 155000 M⁻¹ s⁻¹
C#CCOC(=O)[C@@]1(C)C=C(C(=O)OC(C)(C)C)C(=O)CC1 | Mitogen-activated protein kinase 8 (MAPK8, Homo sapiens, UniProt P45983) | D-peptide binding, inhibitor, FP peptide displacement |  | 12.5 µM | lower is stronger displacement | fraction bound | 0.807
COc1cc(C2C(NC(=O)c3ccc(NC(=O)OC(C)(C)C)cc3)(C(=O)O)C(c3ccc(OC(=O)c4cccs4)c(OC)c3)C2(NC(=O)c2ccc(NC(=O)OC(C)(C)C)cc2)C(=O)O)ccc1OC(=O)c1cccs1 (stereo not shown) | Glucagon-like peptide 1 receptor (GLP1R, Homo sapiens, UniProt P43220, Y148A) | cAMP accumulation, agonist |  | receptor mutant | reference: wild type | Emax | 35.3 ± 4.82%
COc1cc(Nc2nccc(-c3cnn4nc(OC)ccc34)n2)cc(C(F)(F)F)c1 | Mast/stem cell growth factor receptor Kit (KIT, Homo sapiens, UniProt P10721, T670I/V559D) | binding |  | 1 µM |  | remaining binding | 85%
O=C(O)C1OC(Oc2ccc3c(=O)cc(-c4ccccc4)oc3c2)C(O)C(O)C1O (stereo not shown) | UDP-glucuronosyltransferase 1A1 (UGT1A1, Homo sapiens, UniProt P22309) | glucuronidation, substrate | Supersomes |  |  | Vmax | 1.23 ± 0.11 nmol/mg/min
COc1ccc(Cl)cc1NC(=O)C1CC1 | Rhomboid protease AarA | enzyme activity, inhibitor, fluorogenic peptide substrate |  |  |  | IC50 | inactive
CC(C)[C@@H]1NC(=O)[C@H](Cc2ccccc2)NC(=O)CSC[C@@H](C(N)=O)NC(=O)[C@H](CCC(=O)O)NC(=O)[C@H](CO)NC(=O)[C@H](Cc2c[nH]c3cccc(Cl)c23)NC(=O)[C@H](C2CCCCC2)NC(=O)[C@H](C(C)C)NC(=O)[C@H](Cc2ccc(O)cc2)NC(=O)[C@H](CC(=O)O)NC(=O)[C@H](Cc2c[nH]c3ccccc23)NC(=O)[C@H](Cc2ccc(N)nc2)NC(=O)[C@H](Cc2c[nH]c3ccc(Cl)cc23)NC(=O)[C@H](CCC(=O)O)NC1=O | Interleukin-1 receptor-like 2 (IL1RL2, Homo sapiens, UniProt Q9HB29) | reporter gene (SEAP), inhibitor, HEK-Blue IL-36R reporter | HEK-Blue IL-36R cells | 0.005 µM, 6 h, together with: IL-36β 1 ng/mL |  | remaining activity | 97.1%
O=C(CN1CCCN(C(=O)CN2CCCN(Cc3cccc4cnccc34)CC2)CC1)NCCCOCCNCCOCCCNC(=O)CN1CCCN(C(=O)CN2CCCN(Cc3cccc4cnccc34)CC2)CC1 | T1, ssRNA, hairpin with 1x1 G/G internal loops (Homo sapiens) | BLI |  |  |  | Kd | 3.3 µM
O=C1CC(c2ccccc2)N1C(=O)NCc1ccccc1 (stereo not shown) | Rhomboid protease AarA | enzyme activity, inhibitor, fluorogenic peptide substrate |  |  |  | IC50 | inactive
